Results from different studies.
Target: Myosin light chain kinase, smooth muscle (MYLK, Homo sapiens, UniProt Q15746)

Structure (SMILES)	test	system	setting	how to read	endpoint	value
CC(C)=CC1OC(C)(C)C2C=C3C(=O)C(Cl)=CC(O)C3C3C(O)C4OC4C(=O)C132 (stereo not drawn)	cell-free assay, competition with immobilised ligand	–	10 µM	–	remaining binding	97%
NC(=O)C[C@H]1CCc2sc3ncnc(O[C@H]4CC[C@H](N5CCOCC5)CC4)c3c21	enzyme activity, inhibitor	–	10 µM	–	inhibition	5%
CNC1C[S+]2CC[S+]3CC[S+](C1)[Ru-4]321([N]=C=S)[n]2c3ccc(OC)cc3c3c4c(c5cc(F)c[n+]1c5c32)C(=O)NC4=O (stereo not drawn)	KinomeScan	–	0.1 µM	reference: untreated	remaining binding	0.8%
COc1cc(Nc2nccc(-c3cnn4nc(OC)ccc34)n2)cc(C(F)(F)F)c1	binding, competition with immobilised ligand	–	1 µM	–	remaining binding	97%
Nc1ncc2c(n1)-c1c([nH]c3ccc(C4=CCOCC4)cc13)CCC2	binding, competition with immobilised ligand	–	1 µM	–	remaining binding	94%
C=CC(=O)N1CCCC(n2c(=O)c3ncccc3n(Cc3ccc(Oc4ccccc4)cc3)c2=O)C1 (stereo not drawn)	cell-free assay, competition with immobilised ligand	–	1 µM	–	remaining binding	100%
c1ccc2c(Nc3cc(C4CCC4)[nH]n3)nc(Nc3ccc4nc[nH]c4c3)nc2c1	enzyme activity, inhibitor	–	0.25 µM	–	remaining activity	39%
C=CC(=O)Nc1cc(-c2nn(C3CCN(CCNC(=O)[C@H](C)CCC45CC6CC(CC(C6)C4)C5)CC3)c3ncnc(N)c23)ccc1Oc1ccccc1	inhibitor, KiNativ profiling	biochemical	2 µM	–	inhibition	-15.2%
Cc1cnc2nc1Nc1cccc(c1)COC/C=C/COCc1cc(ccc1OCCN1CCOCC1)N2	binding	–	0.1 µM	–	remaining binding	75%
Cc1cccc(-c2ccc3nc(NC(=O)C4CCOCC4)nn3c2)c1	enzyme activity, Dundee kinase panel	–	10 µM	–	remaining activity	88%
O=C(Cc1ccc(OCc2ccccc2)cc1)NC1(C(=O)O)CCN(C(=O)c2ccc(-c3cccc(Cl)c3)cc2)CC1	enzyme activity, inhibitor	–	10 µM	–	activity vs control	93%
CN1CCN(Cc2ccc(-c3ccc(CO[C@H]4CCC[C@@H]4NC(=O)c4cc(-c5cnn(C)c5)cnc4N)cc3)cc2)CC1	enzyme activity, inhibitor	–	0.1 µM	–	inhibition	1%
Cc1cccc(-c2ccc3nc(NC(=O)C4CCCO4)nn3c2)c1 (stereo not drawn)	enzyme activity, Dundee kinase panel	–	10 µM	–	remaining activity	92%
Nc1ncc(-c2cc(-c3cnn(CC(F)(F)F)c3)ncc2F)nc1C(=O)NC1CNCC(F)C1 (stereo not drawn)	enzyme activity	–	1 µM	reference: DMSO control	remaining activity	91.9%
Cc1ccc(-c2c(/C=C(\C#N)C(=O)NC(C)C)n(CCCO)c3ncnc(N)c23)cc1	cell-free assay, competition with immobilised ligand	–	1 µM	–	remaining binding	100%

Some of these lines once more:
Structure (SMILES)	test	system	setting	how to read	endpoint	value
CNC1C[S+]2CC[S+]3CC[S+](C1)[Ru-4]321([N]=C=S)[n]2c3ccc(OC)cc3c3c4c(c5cc(F)c[n+]1c5c32)C(=O)NC4=O (stereo not drawn)	KinomeScan	–	0.1 µM	reference: untreated	remaining binding	0.8%
COc1cc(Nc2nccc(-c3cnn4nc(OC)ccc34)n2)cc(C(F)(F)F)c1	binding, competition with immobilised ligand	–	1 µM	–	remaining binding	97%
